Measurements gathered from unrelated publications.
± marks the error that the study gave.
CDK6 with cyclin D1: Cyclin-dependent kinase 6, with cyclin D1 (CDK6, Homo sapiens, UniProt Q00534)
Sequence of UniProt Q00534 (whole entry, looked up): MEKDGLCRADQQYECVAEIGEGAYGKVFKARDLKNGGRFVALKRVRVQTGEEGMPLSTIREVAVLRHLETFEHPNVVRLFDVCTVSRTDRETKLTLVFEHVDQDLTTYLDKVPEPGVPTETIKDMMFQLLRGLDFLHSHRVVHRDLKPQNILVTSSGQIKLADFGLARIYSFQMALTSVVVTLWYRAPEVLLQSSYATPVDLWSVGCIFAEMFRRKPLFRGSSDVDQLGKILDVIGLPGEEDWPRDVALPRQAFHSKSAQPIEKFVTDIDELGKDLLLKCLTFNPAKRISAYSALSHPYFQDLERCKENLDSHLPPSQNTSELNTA
DRD2: D(2) dopamine receptor (DRD2, Homo sapiens, UniProt P14416)
Sequence of UniProt P14416 (whole entry, looked up): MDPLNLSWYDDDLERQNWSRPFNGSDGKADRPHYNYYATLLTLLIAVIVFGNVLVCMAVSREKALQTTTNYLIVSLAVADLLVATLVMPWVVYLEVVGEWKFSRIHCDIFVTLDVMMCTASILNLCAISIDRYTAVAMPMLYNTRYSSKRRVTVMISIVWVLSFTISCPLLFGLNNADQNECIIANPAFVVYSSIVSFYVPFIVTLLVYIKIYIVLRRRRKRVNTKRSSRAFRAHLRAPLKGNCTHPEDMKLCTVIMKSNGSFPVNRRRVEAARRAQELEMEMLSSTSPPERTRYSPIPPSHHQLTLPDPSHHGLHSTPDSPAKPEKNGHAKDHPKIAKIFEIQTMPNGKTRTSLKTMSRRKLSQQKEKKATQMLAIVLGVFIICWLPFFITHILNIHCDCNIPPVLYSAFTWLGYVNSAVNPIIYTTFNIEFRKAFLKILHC
KRAS C118S/G12V with SOS1: GTPase KRas, with SOS1 (KRAS, Homo sapiens, UniProt P01116, C118S/G12V)
TAF1L BD2: Transcription initiation factor TFIID subunit 1-like, BD2 (TAF1L, Homo sapiens, UniProt Q8IZX4)
Lysine--tRNA ligase, cytoplasmic: Lysine--tRNA ligase, cytoplasmic (Arabidopsis thaliana, UniProt Q9ZPI1)
Sequence of UniProt Q9ZPI1 (whole entry, looked up): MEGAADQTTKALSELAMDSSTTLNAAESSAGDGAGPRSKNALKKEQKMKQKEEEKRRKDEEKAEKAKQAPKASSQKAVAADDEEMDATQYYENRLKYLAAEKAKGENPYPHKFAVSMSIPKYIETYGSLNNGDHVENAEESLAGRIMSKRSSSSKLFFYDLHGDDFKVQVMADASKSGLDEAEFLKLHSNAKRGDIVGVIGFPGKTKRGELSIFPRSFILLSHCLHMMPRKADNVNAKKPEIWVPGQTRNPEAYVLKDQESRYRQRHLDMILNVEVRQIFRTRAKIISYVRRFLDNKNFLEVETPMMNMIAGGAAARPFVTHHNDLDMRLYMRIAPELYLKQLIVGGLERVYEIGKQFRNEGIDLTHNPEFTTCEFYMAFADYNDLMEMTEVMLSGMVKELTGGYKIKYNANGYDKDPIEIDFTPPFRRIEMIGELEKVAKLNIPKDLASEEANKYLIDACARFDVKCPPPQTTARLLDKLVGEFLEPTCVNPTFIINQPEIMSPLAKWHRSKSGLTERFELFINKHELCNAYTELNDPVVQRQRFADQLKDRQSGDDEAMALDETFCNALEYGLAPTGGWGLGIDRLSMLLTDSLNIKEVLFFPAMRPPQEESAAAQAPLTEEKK
DNA polymerase catalytic subunit: DNA polymerase catalytic subunit (Human cytomegalovirus, UniProt P08546)
CSNK1E: Casein kinase I isoform epsilon (CSNK1E, Homo sapiens, UniProt P49674)
Sequence of UniProt P49674 (whole entry, looked up): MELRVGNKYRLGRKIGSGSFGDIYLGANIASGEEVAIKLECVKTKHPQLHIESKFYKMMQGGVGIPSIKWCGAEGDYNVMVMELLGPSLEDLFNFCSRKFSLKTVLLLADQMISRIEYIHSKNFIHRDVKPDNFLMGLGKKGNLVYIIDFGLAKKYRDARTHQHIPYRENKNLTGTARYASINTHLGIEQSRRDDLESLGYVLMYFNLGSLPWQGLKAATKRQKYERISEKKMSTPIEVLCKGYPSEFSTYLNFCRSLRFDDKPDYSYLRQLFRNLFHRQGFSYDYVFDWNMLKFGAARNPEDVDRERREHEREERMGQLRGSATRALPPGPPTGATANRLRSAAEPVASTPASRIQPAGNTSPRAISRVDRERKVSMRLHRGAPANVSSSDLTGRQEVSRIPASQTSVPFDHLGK
XDH: Xanthine dehydrogenase/oxidase (XDH, Bos taurus, UniProt P80457)
Sequence of UniProt P80457 (whole entry, looked up): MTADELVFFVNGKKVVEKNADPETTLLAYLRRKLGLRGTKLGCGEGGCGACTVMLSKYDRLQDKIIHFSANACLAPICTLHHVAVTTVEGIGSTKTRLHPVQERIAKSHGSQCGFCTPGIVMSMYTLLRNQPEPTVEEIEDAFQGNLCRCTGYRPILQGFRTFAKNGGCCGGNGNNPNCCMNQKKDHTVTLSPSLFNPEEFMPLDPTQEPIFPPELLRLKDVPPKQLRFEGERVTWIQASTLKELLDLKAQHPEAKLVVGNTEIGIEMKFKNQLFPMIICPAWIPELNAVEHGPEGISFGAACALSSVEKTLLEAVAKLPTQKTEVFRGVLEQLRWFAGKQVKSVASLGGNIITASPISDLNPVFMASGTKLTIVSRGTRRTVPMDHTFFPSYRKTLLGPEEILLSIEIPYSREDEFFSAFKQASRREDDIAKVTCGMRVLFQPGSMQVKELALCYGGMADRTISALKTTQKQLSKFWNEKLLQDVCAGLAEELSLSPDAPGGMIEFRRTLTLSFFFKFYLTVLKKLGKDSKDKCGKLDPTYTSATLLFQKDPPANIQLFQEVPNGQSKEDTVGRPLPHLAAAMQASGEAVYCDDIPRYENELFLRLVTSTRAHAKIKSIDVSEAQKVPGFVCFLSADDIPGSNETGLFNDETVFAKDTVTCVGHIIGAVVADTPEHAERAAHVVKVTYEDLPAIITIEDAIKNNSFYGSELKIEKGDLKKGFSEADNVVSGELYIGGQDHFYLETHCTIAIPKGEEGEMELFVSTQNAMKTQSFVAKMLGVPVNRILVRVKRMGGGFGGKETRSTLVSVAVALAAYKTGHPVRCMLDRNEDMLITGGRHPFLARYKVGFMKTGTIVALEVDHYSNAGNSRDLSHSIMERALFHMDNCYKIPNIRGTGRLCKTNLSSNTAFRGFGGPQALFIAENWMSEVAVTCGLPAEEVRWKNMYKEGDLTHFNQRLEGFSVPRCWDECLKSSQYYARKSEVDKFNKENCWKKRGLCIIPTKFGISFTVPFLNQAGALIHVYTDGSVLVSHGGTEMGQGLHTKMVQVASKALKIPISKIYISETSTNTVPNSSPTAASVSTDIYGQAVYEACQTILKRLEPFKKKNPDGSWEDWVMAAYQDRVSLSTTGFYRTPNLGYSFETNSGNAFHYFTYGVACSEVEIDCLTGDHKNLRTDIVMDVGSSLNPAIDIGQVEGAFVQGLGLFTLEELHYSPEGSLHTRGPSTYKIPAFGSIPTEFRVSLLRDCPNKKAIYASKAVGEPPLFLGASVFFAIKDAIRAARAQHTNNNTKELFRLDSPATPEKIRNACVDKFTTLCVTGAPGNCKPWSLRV
PTGS2: Prostaglandin G/H synthase 2 (PTGS2, Homo sapiens, UniProt P35354)
Sequence of UniProt P35354 (whole entry, looked up): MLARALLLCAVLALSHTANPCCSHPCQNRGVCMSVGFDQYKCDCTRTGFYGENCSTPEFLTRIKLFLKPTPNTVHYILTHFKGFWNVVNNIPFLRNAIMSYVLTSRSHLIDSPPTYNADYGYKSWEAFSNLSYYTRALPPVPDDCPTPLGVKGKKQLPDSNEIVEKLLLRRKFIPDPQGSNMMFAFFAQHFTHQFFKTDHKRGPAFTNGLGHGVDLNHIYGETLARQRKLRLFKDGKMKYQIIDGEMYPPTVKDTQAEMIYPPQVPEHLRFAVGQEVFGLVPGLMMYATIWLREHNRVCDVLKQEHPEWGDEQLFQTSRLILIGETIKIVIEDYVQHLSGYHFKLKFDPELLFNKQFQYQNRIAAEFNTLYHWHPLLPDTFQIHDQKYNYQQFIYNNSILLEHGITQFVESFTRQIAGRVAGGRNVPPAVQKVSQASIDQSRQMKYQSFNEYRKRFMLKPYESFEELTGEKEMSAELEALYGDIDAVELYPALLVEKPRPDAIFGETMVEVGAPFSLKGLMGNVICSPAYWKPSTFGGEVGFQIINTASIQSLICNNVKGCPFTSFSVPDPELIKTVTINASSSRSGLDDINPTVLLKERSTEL
60 kDa heat shock protein, mitochondrial with HSP10: 60 kDa heat shock protein, mitochondrial, with HSP10 (Homo sapiens, UniProt P10809)
Sequence of UniProt P10809 (whole entry, looked up): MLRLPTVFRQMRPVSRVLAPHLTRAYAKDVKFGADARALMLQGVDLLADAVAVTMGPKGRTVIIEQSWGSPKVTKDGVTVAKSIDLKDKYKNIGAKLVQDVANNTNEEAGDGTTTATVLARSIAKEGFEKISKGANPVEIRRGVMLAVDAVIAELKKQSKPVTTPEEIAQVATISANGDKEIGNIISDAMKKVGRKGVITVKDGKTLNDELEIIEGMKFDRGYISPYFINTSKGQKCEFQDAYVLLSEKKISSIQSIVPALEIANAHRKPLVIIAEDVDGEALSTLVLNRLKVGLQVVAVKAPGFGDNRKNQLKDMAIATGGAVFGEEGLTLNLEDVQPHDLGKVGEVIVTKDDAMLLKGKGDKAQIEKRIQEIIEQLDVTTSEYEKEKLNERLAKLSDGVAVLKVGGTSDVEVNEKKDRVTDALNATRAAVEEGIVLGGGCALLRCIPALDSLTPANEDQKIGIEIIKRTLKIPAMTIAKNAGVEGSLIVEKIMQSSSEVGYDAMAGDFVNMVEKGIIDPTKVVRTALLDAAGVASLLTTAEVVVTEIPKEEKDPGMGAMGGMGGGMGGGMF
MCL1: Induced myeloid leukemia cell differentiation protein Mcl-1 (MCL1, Homo sapiens, UniProt Q07820)
Sequence of UniProt Q07820 (whole entry, looked up): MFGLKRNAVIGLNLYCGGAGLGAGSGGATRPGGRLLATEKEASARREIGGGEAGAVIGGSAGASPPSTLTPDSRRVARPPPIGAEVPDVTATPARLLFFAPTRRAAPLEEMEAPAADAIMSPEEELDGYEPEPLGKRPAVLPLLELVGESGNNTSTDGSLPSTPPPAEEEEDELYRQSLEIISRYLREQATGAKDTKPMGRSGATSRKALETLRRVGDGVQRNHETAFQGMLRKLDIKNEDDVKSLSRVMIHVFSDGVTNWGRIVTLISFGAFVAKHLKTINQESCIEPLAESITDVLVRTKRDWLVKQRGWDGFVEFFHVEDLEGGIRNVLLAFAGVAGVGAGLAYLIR
Sequence of UniProt Q9NXA8 (whole entry, looked up): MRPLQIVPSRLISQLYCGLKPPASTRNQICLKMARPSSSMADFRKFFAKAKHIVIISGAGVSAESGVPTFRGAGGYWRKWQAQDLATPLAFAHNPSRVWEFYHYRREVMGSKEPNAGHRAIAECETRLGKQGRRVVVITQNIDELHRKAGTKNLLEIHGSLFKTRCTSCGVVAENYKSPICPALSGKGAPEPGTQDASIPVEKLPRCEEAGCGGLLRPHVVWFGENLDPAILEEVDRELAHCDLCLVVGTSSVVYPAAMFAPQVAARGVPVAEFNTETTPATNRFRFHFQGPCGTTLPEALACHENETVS

Compound | target | assay | system | conditions | IC50
CN(C)C(=O)c1cc2cnc(Nc3ccc(-c4cccc5c(=O)cc(N6CCOCC6)oc45)cn3)nc2n1C1CCCC1 | CDK6 with cyclin D1 | inhibitor, HotSpot radiometric kinase | – | with: 10 µM ATP, cyclin D1 | 270 nM
Cc1[nH]c(C)c(S(=O)(=O)Nc2ccc(C(F)(F)F)c(Cl)c2)c1C(=O)N1CCC(C#N)C1 (stereo not shown) | DRD2 | – | – | – | > 100000 nM
CC1(C)COc2ccc(F)cc2CN2c3nc4c(cnn4cc3OC[C@H]2C(F)F)C(=O)N1 | NT-3 growth factor receptor (NTRK3, Homo sapiens, UniProt Q16288) | enzyme activity, inhibitor | – | with: 1 mM ATP | 0.2 nM
CC#CC(=O)N1CC[C@@H](n2c(=O)n(-c3ccc(Oc4ccccc4)cc3)c3c(N)ncnc32)C1 | Phosphatidylinositol 4,5-bisphosphate 3-kinase catalytic subunit delta isoform, with p85alpha (PIK3CD, Homo sapiens, UniProt O00329) | – | – | – | > 5000 nM
Cc1ccc2[nH]nc(-c3nnc(Nc4ccc(Cl)c(Cl)c4)s3)c2c1 | α-glucosidase | enzyme activity, inhibitor | – | pH 6.8, with: p-nitrophenyl-α-D-glucopyranoside | 4810 ± 1510 nM
CC(C)C[C@H](NC(=O)[C@H](CCc1ccccc1)NC(=O)CN1CCOCC1)C(=O)N[C@@H](Cc1ccccc1)C(=O)N[C@@H](CC(C)C)C(=O)[C@@]1(C)CO1 | Proteasome subunit beta type-1/Psmb5, β5 subunit (Mus musculus, UniProt O09061+O55234) | proteasome subunit activity | Ba/F3 BCR-ABL1 H396P | 1 h pulse | 4.05 nM
CCN1CCN(c2nccc(-c3noc([C@@]4(C)CCCc5sc(N)c(C#N)c54)n3)n2)[C@@H](C)C1 | KRAS C118S/G12V with SOS1 | KRAS G12V-SOS1 interaction, inhibitor, AlphaScreen | – | geometric mean | 33 nM
CN(C)C(=O)c1cc2cnc(Nc3ccc(-c4ccc5c(=O)cc(N6CCNCC6)oc5c4)cc3)nc2n1C1CCCC1 | CDK6 with cyclin D1 | inhibitor, HotSpot radiometric kinase | – | with: 10 µM ATP, cyclin D1 | 4.93 nM
C[C@]1(c2nc(-c3cccc(N4CCNCC4)c3)no2)CCCc2sc(N)c(C#N)c21 | GTPase KRas, with SOS1 (KRAS, Homo sapiens, UniProt P01116) | KRAS WT-SOS1 interaction, inhibitor, AlphaScreen | – | – | ≤ 1000 nM
CN(C)C(=O)c1cc2cnc(Nc3ccc(-c4ccc5c(=O)cc(N6CCOCC6)oc5c4)cc3)nc2n1C1CCCC1 | CDK6 with cyclin D1 | inhibitor, HotSpot radiometric kinase | – | with: 10 µM ATP, cyclin D1 | 10.2 nM
C[C@H]1CNCCN1c1nccc(-c2noc([C@@]3(C)CCCc4sc(N)c(C#N)c43)n2)n1 | KRAS C118S/G12V with SOS1 | KRAS G12V-SOS1 interaction, inhibitor, AlphaScreen | – | geometric mean | 41 nM
COc1nc(NCc2cn(-c3ccc(C(=O)Nc4ccc(C(F)(F)F)cc4)cc3)nn2)nc(OC)n1 | Collagenase 3 (MMP13, Homo sapiens, UniProt P45452) | – | – | – | 275 ± 17 nM
Cc1cc2c(cc1N1C(=O)c3cccc4c(N5CCN(CC6CC6)CC5)ccc(c34)C1=O)n(C)c(=O)n2C | TAF1L BD2 | HTRF | – | GST-tagged protein | 33.4 nM
Cc1cc(OC(C)C)ccc1C(=O)C(C)(C)NC(=O)c1sccc1C | mitochondrial complex II-III (succinate-cytochrome c oxidoreductase), Pythium | enzyme activity, inhibitor | mitochondrial fraction | 25 °C | > 1 µg/mL
COc1ccc2c(c1)CN(C(=O)CCN1CCC(Cc3ccccc3)CC1)CC[S@@+]2[O-] | Inward rectifier potassium channel 2 (KCNJ2, Homo sapiens, UniProt P63252) | IK1 current, inhibitor, whole-cell patch clamp | stable cell line | – | > 100000 nM
Cc1[nH]c(C)c(S(=O)(=O)Nc2ccc(C(F)(F)F)c(Cl)c2)c1C(=O)N1CC[C@@H](F)C1 | DRD2 | – | – | – | > 100000 nM
Nc1nsc(C(=O)NCC2CCCCC2)c1I | Lysine--tRNA ligase, cytoplasmic | enzyme activity, inhibitor | – | – | 3980 nM
CC1(C)CN(C(=O)Cn2c(=O)c(C(=O)NCc3ccc(Cl)cc3)cc3nccnc32)C1 | DNA polymerase catalytic subunit | enzyme activity, inhibitor | – | at least duplicate | 2300 nM
Fc1ccc(-c2nc(-c3ccc4c(c3)OCO4)[nH]c2-c2ccncc2)cc1 | CSNK1E | inhibitor | – | – | 602 ± 72.6 nM
CC1(F)CN(C(=O)Cn2c(=O)c(C(=O)NCc3ccc(Cl)cc3)cc3nc(N4CCNC4=O)cnc32)C1 | DNA polymerase catalytic subunit | enzyme activity | – | retest | 450 nM
COc1cc(NCC(=O)Nn2c(C)nc3ccc(Cl)cc3c2=O)cc(OC)c1OC | XDH | enzyme activity, inhibitor | – | – | 28900 ± 2120 nM
Cc1ccc2[nH]nc(-c3nnc(Nc4ccc(C)c(C)c4)s3)c2c1 | α-glucosidase | enzyme activity, inhibitor | – | pH 6.8, with: p-nitrophenyl-α-D-glucopyranoside | 9820 ± 1230 nM
C[C@H]1CN(C)CCN1c1cccc(-c2noc([C@@]3(C)CCCc4sc(N)c(C#N)c43)n2)n1 | KRAS C118S/G12V with SOS1 | KRAS G12V-SOS1 interaction, inhibitor, AlphaScreen | – | geometric mean | 41 nM
O=C(NC1CCC1)[C@H](Cc1c[nH]c2ccccc12)NC(=O)[C@H](CCCCNC(=S)NCCc1nnn[nH]1)NS(=O)(=O)c1cccc(F)c1 | NAD-dependent protein deacylase sirtuin-5, mitochondrial (SIRT5, Homo sapiens, UniProt Q9NXA8) | enzyme activity, inhibitor | – | – | 60 ± 10 nM
Fc1ccc(-c2nc(C3CCCCC3)[nH]c2-c2ccncc2)cc1 | CSNK1E | inhibitor | – | – | 256 ± 22.8 nM
Cc1[nH]c(C)c(S(=O)(=O)Nc2cc(Cl)c(Cl)c(Cl)c2)c1C(=O)N1CCC(F)(F)C1 | DRD2 | – | – | – | > 100000 nM
Nc1cc(C(=O)NCC2CCCCC2)sn1 | Lysine--tRNA ligase, cytoplasmic | enzyme activity, inhibitor | – | – | 5010 nM
Cc1ccc(NS(=O)(=O)c2c(C)[nH]c(C)c2C(=O)N2CC(F)(F)C(F)(F)C2)cc1Cl | DRD2 | – | – | – | > 100000 nM

Compound | target | assay | system | conditions | IC50
Cc1cc2c(cc1N1C(=O)c3cccc4c(N5CCOCC5)ccc(c34)C1=O)n(C)c(=O)n2C | TAF1L BD2 | HTRF | – | GST-tagged protein | 309 nM
COc1cc(-c2cc(=O)c3c(O)c(OC)c(O)cc3o2)ccc1O | PTGS2 | – | – | – | 5.21 ± 0.1 µg/mL
Cc1nn(C)c2ncc(C(=O)NCc3ccccc3)c(Cl)c12 | 60 kDa heat shock protein, mitochondrial with HSP10 | HSP60/10-mediated MDH refolding | – | 5 min, preincubation before ATP, with: denatured malate dehydrogenase | 29000 nM
Cc1cc(Nc2ncc(Cl)c(Nc3ccccc3S(=O)(=O)C(C)C)n2)c(OC(C)C)cc1C1CCNCC1 | BDNF/NT-3 growth factors receptor (NTRK2, Homo sapiens, UniProt Q16620) | cell-based | – | – | > 9190 nM
Cc1ccc(NS(=O)(=O)CCC(=O)N[C@@H](C)CC(=O)N2CCCC2)cc1Cl | DRD2 | – | – | – | > 100000 nM
Cc1cccc(C)c1-c1nc(-c2ccc(F)cc2)c(-c2ccncc2)[nH]1 | CSNK1E | inhibitor | – | – | 99.5 ± 28 nM
Cc1ccc(S(=O)(=O)Nc2c(C)[nH]c(C)c2C(=O)N2CCC(F)(F)C2)cc1 | DRD2 | – | – | – | > 100000 nM
C[C@@H]1O[C@@H](Oc2c(-c3ccc(O)c(O)c3)oc3cc(O)cc(O)c3c2=O)[C@H](O)[C@H](O)[C@H]1O | α-glucosidase | enzyme activity | – | with: pNPG substrate | 279 µg/mL
COc1ccccc1-c1nccc(COc2ccccc2C[C@@H](Oc2cccc3oc(-c4ccc(F)cc4)c(-c4ccc(OCCN5CCN(C)CC5)c(Cl)c4C)c23)C(=O)O)n1 | MCL1 | binding, quench | – | – | 1.3 nM
CCCCCCCCC/C=C/C(=O)CCc1ccc(O)c(OC)c1 | PTGS2 | inhibitor | – | – | 7500 nM
CN1CCN(c2ccc(Nc3ncc4cc(C#N)c(=O)n(C5CCCC5)c4n3)cc2)CC1 | Cyclin-dependent kinase 3, with cyclin E (CDK3, Homo sapiens, UniProt Q00526) | – | – | – | 1780 nM
CC1CCC(CNC(=O)c2snc(N)c2Cl)CC1 (stereo not shown) | Lysine--tRNA ligase, cytoplasmic | enzyme activity, inhibitor | – | – | 2000 nM
[O]=[V]([OH])([OH])[OH] | plasma membrane Ca2+ ATPase human | Ca2+ efflux, inhibitor, Rhod-FF fluorescence | human erythrocytes | pH 7.2, room temperature | 90000 ± 30000 nM
COc1cc(/C=N/n2c(C)nc3ccc(C)cc3c2=O)cc([N+](=O)[O-])c1O | XDH | enzyme activity, inhibitor | – | – | 190000 ± 7680 nM
COc1ccc(C[C@H](N)C(=O)N[C@H]2[C@@H](O)[C@H](n3cnc4c(N(C)C)ncnc43)O[C@@H]2CO)cc1 | Puromycin-sensitive aminopeptidase (Rattus norvegicus, UniProt F1M9V7) | enzyme activity, inhibitor | rat enzyme | – | 5400 nM
Cc1cnc(NS(=O)(=O)c2c(C)[nH]c(C)c2C(=O)N2CCC(F)(F)C2)cc1Cl | DRD2 | – | – | – | > 100000 nM
O=C(Nc1ccc(OS(=O)(=O)c2ccc(Cl)cc2)cc1)c1cnccn1 | P2X purinoceptor 7 (P2RX7, Homo sapiens, UniProt Q99572) | calcium mobilization, antagonist | MCF7 transfected with P2RX7 | with: 100 µM BzATP | 1330 ± 132 nM
CSc1ccccc1C(=O)NCCn1cc(C(=O)NCc2cccc(C)n2)c(=O)c2cc3c(cc21)OCO3 | Cytochrome P450 2C19 (CYP2C19, Homo sapiens, UniProt P33261) | enzyme activity, inhibitor | human liver microsomes | 20 min, 30 min NADPH preincubation, with: mephenytoin 50 µM | > 100000 nM
COc1cc(O)c(-c2nc(-c3ccc(F)cc3)c(-c3ccncc3)[nH]2)c(OC)c1 | CSNK1E | inhibitor | – | – | > 5000 nM
Cn1ncc2c(Cl)c(C(=O)NCc3ccccc3)cnc21 | 60 kDa heat shock protein, mitochondrial with HSP10 | HSP60/10-mediated MDH refolding | – | 5 min, preincubation before ATP, with: denatured malate dehydrogenase | 34000 nM
CC[C@@H]1[C@H](F)C(=O)N[C@@H]1COc1nccc2cc(C(N)=O)c(OC)cc12 | SNF-related serine/threonine-protein kinase (SNRK, Homo sapiens, UniProt Q9NRH2) | ATP-site probe binding, ActivX profiling | THP-1 cell lysate | Lys2 site | > 5000 nM
COc1ccccc1-c1nccc(COc2ccccc2C[C@@H](Oc2ncnc3oc(-c4ccc(F)cc4)c(-c4ccc(OCCN5CCN(C)CC5)c(Cl)c4C)c23)C(=O)O)n1 | MCL1 | binding, quench | – | – | 0.036 nM
COc1c(Cl)cccc1Nc1c(-c2ccncc2OC[C@@H]2COCCO2)[nH]c2c1C(=O)NCC2 | Mitotic checkpoint serine/threonine-protein kinase BUB1 (BUB1, Homo sapiens, UniProt O43683) | kinase activity, inhibitor, TR-FRET | – | median value, with: ATP 2 mM | 5200 nM
Cn1cnc(Cn2ccc3ccc(CNCc4[nH]c5ccccc5c4[C@H]4NC(=O)c5ccc(O)cc54)cc32)c1 | GTPase KRas, GppNHp; with RAF1 RBD (KRAS, Homo sapiens, UniProt P01116, G12D) | HTRF | – | – | 26500 ± 10700 nM
Cc1[nH]cc(S(=O)(=O)Nc2ccc(C(F)(F)F)c(Cl)c2)c1C(=O)N(C)C | DRD2 | – | – | – | > 100000 nM
Cc1nc2ncnn2c(Nc2ccc(C(F)(F)F)cc2)c1Cl | Dihydroorotate dehydrogenase (quinone), mitochondrial (DHODH, Homo sapiens, UniProt Q02127) | enzyme activity, inhibitor | – | – | > 100000 nM
Cc1c(-c2ccccc2)cc(-c2ccccc2)n1-c1ccccc1 | PTGS2 | enzyme activity, inhibitor, fluorogenic resorufin | – | – | 11200 ± 200 nM

Excerpt of the above:
Compound | target | assay | system | conditions | IC50
Cc1cc2c(cc1N1C(=O)c3cccc4c(N5CCOCC5)ccc(c34)C1=O)n(C)c(=O)n2C | TAF1L BD2 | HTRF | – | GST-tagged protein | 309 nM
COc1cc(-c2cc(=O)c3c(O)c(OC)c(O)cc3o2)ccc1O | PTGS2 | – | – | – | 5.21 ± 0.1 µg/mL
Cc1nn(C)c2ncc(C(=O)NCc3ccccc3)c(Cl)c12 | 60 kDa heat shock protein, mitochondrial with HSP10 | HSP60/10-mediated MDH refolding | – | 5 min, preincubation before ATP, with: denatured malate dehydrogenase | 29000 nM
